Published values from different studies.
Each numbered part is a random draw from the data of one study; scales do not carry over between parts.

Study 1 — technique: competition protein-binding microarray; molecule type: double-stranded DNA, one strand shown; medium: in vitro; concentration: 2 µM; together with: Cbf1 competitor, 0.05 µM; direction: higher = stronger binding; quantity: fluorescence intensity
Target: Phosphate system positive regulatory protein PHO4, full length, GST-tagged (PHO4, Saccharomyces cerevisiae, UniProt P07270, residues 1-312)
Notes: whole 60-bp probe, lowest competitor level
Residues (chain): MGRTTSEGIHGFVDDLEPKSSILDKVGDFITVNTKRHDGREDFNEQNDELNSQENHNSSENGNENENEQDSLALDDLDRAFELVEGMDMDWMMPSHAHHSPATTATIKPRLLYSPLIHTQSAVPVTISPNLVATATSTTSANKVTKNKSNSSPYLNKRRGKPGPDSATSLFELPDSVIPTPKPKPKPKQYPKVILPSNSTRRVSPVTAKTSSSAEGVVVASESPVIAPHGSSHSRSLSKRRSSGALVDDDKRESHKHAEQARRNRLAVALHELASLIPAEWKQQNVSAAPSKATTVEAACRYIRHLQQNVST
CTTTCCCGATCTTGGTTAGTGGGTGTAGCACATTTGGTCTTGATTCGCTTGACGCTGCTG: 4770 a.u.
CTTTCCCGATCTTGCAGCGTGGGTGTAGCACATTTGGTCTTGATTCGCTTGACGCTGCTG: 8530 a.u.
TGGAAACCTGCCTGTCACATGATGTAAAATCTCCATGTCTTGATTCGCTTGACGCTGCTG: 7600 a.u.
TCGGGCGCTCTAGGACGCGTGTCGGTCGGGTAACCAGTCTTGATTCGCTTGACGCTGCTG: 7050 a.u.
TCGCGAGAAACGTTACACGTTGTTTGGATGAAAACAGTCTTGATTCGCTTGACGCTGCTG: 11000 a.u.
TCACTTTGTCGTCTTCATGTGGGAGTCGGGGCTGTTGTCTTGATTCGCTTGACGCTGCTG: 5300 a.u.
CCTCTTTTAATATGTAACGTGTCGGTTCTATTTATCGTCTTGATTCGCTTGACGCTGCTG: 10500 a.u.
GTATTGGGGGCTCGGCACGGCGGCTTTAGAACGGCTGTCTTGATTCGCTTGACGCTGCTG: 4860 a.u.
CTTCTGTAAATTTGTCACCTTACTTGACGCGCCCCGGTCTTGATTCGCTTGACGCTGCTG: 3710 a.u.
CTTTCCCGATCTTGGCGAGTGGGTGTAGCACATTTGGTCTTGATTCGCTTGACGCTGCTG: 5010 a.u.
ACAAACAACTCACTCAACGTGTCCAAAACTTCGTAGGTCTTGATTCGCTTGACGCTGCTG: 11900 a.u.
GCTTTCCCAGCGATGCTCGTGTGGAGGACCGAACATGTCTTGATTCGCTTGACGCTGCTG: 7370 a.u.
ATAAAATTTCAGAATCACATGTTCGTAAAACAACCGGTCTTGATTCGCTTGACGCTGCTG: 8860 a.u.
CATACCCAACCTTGGGTGGTGGGTGAAGATATTTGTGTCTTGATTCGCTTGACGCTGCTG: 4700 a.u.
TACCTGGGCATCCATCACGCTTCAGCCGCTCTGTGTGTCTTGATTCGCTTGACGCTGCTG: 5540 a.u.
CGGGGTTAAGTTTGAAGGGTGGGTGGCTTGCAGCAGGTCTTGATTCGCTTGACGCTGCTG: 4700 a.u.
TCACTCCTGATGAAGCTCGTGTGAAGGAATTCAACCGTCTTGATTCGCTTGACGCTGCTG: 8380 a.u.
AAGGAGGGTAAGACACACATGATAATCAATGTCGAAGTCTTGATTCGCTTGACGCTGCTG: 6150 a.u.
CGTCCTAGCGATTGAACAGTGGGTGCCATGAGGAAGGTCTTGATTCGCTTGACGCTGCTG: 6320 a.u.
CTAACGAAGGTTTGGAGGGTGGGTGACAAGCCAAGTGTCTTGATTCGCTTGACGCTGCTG: 4370 a.u.
ACCTTGTTCCAATTGTTCGTGATGGATTTCAACGGAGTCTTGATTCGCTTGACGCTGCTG: 4390 a.u.
TTGTTCCGCGGAAAGCACGTGAGCCTAATCCACTCGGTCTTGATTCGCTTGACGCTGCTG: 16600 a.u.
CATACCCAACCTTGGGTCGTGGGTGAAGATATTTGTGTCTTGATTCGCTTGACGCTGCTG: 10100 a.u.
GCCAATATCAAGAAAAACGTGTTGGGGGACGAAAATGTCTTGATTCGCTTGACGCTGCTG: 12600 a.u.
GTCTTGTCTCATTTTCACGTGAAATTCCCCACTTCAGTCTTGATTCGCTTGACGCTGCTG: 7330 a.u.

Study 2 — technique: RNA Bind-n-Seq; molecule type: RNA; medium: in vitro; concentration: 365 nM; relative to: no-protein control; direction: higher = stronger binding; quantity: RBNS enrichment (R)
Target: RNA binding protein fox-1 homolog 2, RRM domain, GST-SBP tag (RBFOX2, Homo sapiens, UniProt O43251-10, residues 100-194)
Notes: natural RNA segment, single round, ends assumed
Residues (chain): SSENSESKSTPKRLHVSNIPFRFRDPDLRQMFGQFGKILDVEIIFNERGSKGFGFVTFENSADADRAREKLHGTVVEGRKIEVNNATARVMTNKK
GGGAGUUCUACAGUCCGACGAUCUUUACGUGUUUCUAAGUUGUUGGCUACAUCAAAGAGAUCAUCUGUAUUCUGCAUAUGGGCUGGCUUUGGUGAAGCUGAUGACUGGACUUCUAAGAACCGUUUUCCCAAAUUGGAAUUCUCGGGUGCCAA: 0.19
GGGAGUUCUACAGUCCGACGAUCACGUCAUUUUGCAAAUUAGAACAGGACAAAUUUUAUGUUUCCGGGGCACAUAUGUUGUAUUGCAAAGCAUAUUUGGCAAGCAGUUCAUCACCAAGGCAGUAGCUAUGAUUUGGAAUUCUCGGGUGCCAA: 0.814
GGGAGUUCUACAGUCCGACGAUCUUUAAAACAUAGGAAAGUAGAAUGGUUGAGUGCAAAUCCAUAGCACAAGAUAAAUUGAGCUAGUUAAGGCAAAUCAGGUAAAAUAGUCAUGAUUCUAUGUAAUGUAAACCUGGAAUUCUCGGGUGCCAA: 0.66
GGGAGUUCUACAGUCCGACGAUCAGUUCUCUGUUGAUCCUGAGACUAACAAUUGGAGACUGAGGCCAGAGCAACUGGCUCCUGGCAGCUGUGCUUGUCCGUUUCCUGUCAGAGUGAUCCCAGGUUUCCUCCUGUGGAAUUCUCGGGUGCCAA: 0.284
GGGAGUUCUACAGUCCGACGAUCCGAUAAUCAUCCACAUAGCCACCUCUGUCCUCGCAGUUUGGAUGCCUUUUUUUGACACCUGCGCUAGGUUCUUGUAUGCUGGCUUUUCUUAAAGGAACAGCAGAGUAGAAUGGAAUUCUCGGGUGCCAA: 0.601
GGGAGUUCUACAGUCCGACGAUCUACUGGUAAAAUGGAAAUACUUCACAGAGUGAAUAAAGAAUACUUUUUUUUUUGUAAAUGUUCUGUAAAGAAAAAAUGUACAGUAAAUAAAGUGUUUUAUUUGUAGACUGUGGAAUUCUCGGGUGCCAA: 0.496
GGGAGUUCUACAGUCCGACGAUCGGCUCAUUCAAAGUUAAAAUCAGAGUCUCAGAGUUAAAACAGACAUUAAUGACUUAUCCAACCCUGUUUUUCUAAAAAGAAAGGUAACAGGCAAAAAGUGUGUUGCCGAGUGGAAUUCUCGGGUGCCAA: 0.44
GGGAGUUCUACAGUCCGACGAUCCUUUCUGAGUCUUAACCUCCUUGUCUCUAAAAUGGGCAAUUAAAACAAUCUUCAAGAGCCCUGUAAGGUUAAUGCCGAUAAAAUGACUGACUCCGCCCUUCUUCCUUAGUUGGAAUUCUCGGGUGCCAA: 0.253
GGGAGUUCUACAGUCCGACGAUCUAGAAUGAAUAAAUUACUGAUAAGGUUACAAAUAGGUAAAUGUCACACUUCUGUUAAAAUGCAGGAGGUAGUGUCAUAAUGCCGUCUUUAUAUUCUUAAUAAAUAGCACUUGGAAUUCUCGGGUGCCAA: 0.305

Study 3 — technique: universal PBM; molecule type: double-stranded DNA, one strand shown; medium: in vitro; concentration: not given; direction: higher = stronger binding; quantity: E-score
Target: Sal-like protein 4, full length isoform B (SALL4, Homo sapiens, UniProt Q9UJQ4-2, residues 1-616)
Notes: 8-mer, flanks averaged, mean of replicates
Residues (chain): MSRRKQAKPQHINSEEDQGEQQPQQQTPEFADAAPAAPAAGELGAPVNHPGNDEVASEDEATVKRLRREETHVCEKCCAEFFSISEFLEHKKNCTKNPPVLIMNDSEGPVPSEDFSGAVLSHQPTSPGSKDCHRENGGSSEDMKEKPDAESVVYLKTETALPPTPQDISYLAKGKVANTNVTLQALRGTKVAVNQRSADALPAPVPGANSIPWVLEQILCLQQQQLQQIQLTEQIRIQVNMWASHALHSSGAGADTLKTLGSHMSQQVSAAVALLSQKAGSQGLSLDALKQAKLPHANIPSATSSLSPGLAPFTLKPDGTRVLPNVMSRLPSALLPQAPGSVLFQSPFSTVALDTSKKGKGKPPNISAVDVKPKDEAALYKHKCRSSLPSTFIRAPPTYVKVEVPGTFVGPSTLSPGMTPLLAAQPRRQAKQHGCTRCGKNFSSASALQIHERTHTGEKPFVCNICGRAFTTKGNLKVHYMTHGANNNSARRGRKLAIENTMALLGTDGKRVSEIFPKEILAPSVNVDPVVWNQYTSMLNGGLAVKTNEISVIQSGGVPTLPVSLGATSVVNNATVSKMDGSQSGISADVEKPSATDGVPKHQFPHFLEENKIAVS
TCAGGAGA: 0.112
AGTGAAAG: -0.0167
AACGCCCA: 0.00848
ACTACAAT: 0.195
ACAACCTG: 0.0727
CATGCGTA: 0.156
ATCCCTTG: -0.0853
AGGATCAG: -0.239
CCTCCGAG: -0.304
AGCGCTGC: -0.14
CTCCCGGA: -0.281
AGTTTGTG: -0.0176
GGACGACC: -0.374
AAACCAGT: 0.0497
AGGTACAC: -0.105
ACCATACG: 0.0722
ATCTGTGC: 0.0387
GCATGCGC: -0.148
AATAAGAC: 0.241
CTAGGGAA: 0.00259
ACAACCTA: -0.0252
TGCCCCAA: 0.0155
GCATCGTA: -0.0873

Study 4 — technique: protein-binding microarray; molecule type: double-stranded DNA, one strand shown; medium: in vitro; concentration: 2200 nM top; notes: 60-bp whole probe; together with: salmon DNA 0.4 mg/ml; relative to: random background probes; direction: higher = stronger binding; quantity: fitted relative affinity; constant ends, left off below: GCCTAGCAC … GTCTTGATTCGCTTGACGCTGCTG
Target: Interferon regulatory factor 7, full length, phosphomimetic (IRF7, Homo sapiens, UniProt Q92985, residues 1-503, S471D/S472D/S475D/S476D/S477D/S483D/S484D/S487D)
Chain of UniProt Q92985 (whole entry, unmodified, looked up): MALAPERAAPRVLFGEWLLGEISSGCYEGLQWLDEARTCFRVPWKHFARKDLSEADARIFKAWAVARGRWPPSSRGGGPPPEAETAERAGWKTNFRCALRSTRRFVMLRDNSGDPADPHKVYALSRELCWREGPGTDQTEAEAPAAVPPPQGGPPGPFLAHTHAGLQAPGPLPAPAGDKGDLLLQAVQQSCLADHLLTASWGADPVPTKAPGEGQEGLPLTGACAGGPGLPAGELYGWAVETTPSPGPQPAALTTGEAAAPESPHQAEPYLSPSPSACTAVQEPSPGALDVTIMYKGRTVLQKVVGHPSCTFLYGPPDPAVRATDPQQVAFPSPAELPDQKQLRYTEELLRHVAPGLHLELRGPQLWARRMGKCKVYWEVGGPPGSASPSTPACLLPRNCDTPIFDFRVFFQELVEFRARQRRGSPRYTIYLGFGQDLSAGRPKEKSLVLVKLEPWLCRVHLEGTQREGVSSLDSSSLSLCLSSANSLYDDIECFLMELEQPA
GACGAAATCAGTTTCGAGACGTGCTAG: 3.45 z-score
TCTGTTTTCGCTTTCTTTAAGTGCTAG: 12.5 z-score
TCATATATTTTAATCACACTGTGCTAG: 0.662 z-score
GATGGCCTCTTGCTCAGCCCGTGCTAG: -0.573 z-score
TTAGTTCTCGGTCTCGGTTAGTGCTAG: 1.75 z-score
GACGAACTGAGTCTAGAGACGTGCTAG: -0.174 z-score
AGAGATGTGGGACTCACCTAGTGCTAG: -0.365 z-score
TTAGATTTCGGGATTGGATTAGTGCTA: 1.73 z-score
GACTGACTGGGGACTGGGGACGTGCTA: -0.41 z-score
TTAGGTACCGGACTGGGTTAGTGCTAG: -0.566 z-score
GACGGCCTGGACTTTCGGGACGTGCTA: 1.92 z-score
TCAACTCTCTAATTTTGACTGTGCTAG: 0.538 z-score
GACGAATTGAGACTGGAGACGTGCTAG: -0.169 z-score
TCAGGACTGACTCTTCAGACTGTGCTA: -0.339 z-score
TCAGGTCTCGCTTCATCACTGTGCTAG: 1.94 z-score
GGACGGCAGTGCACACAGTGGTGCTAG: -0.94 z-score
GAAGGTTTCGGACTGGGGACGTGCTAG: 3 z-score
TTTCCTTTGCCTCTGAGGCTGTGCTAG: 6.12 z-score
TTATGACTGCTACTGCTTTAGTGCTAG: 0.363 z-score
AATGATTGGTTGAACATGAAGTGCTAG: 0.0253 z-score
TCAGGACTGGGTTTCGGTTAGTGCTAG: 3.92 z-score

For quick reference, copied from above (study 4):
TTAGTTCTCGGTCTCGGTTAGTGCTAG: 1.75 z-score
TCAGGTCTCGCTTCATCACTGTGCTAG: 1.94 z-score
AATGATTGGTTGAACATGAAGTGCTAG: 0.0253 z-score
TCTGTTTTCGCTTTCTTTAAGTGCTAG: 12.5 z-score
